Measurements gathered from unrelated publications.
Parts stem from different laboratories: compare values within a part only.

Block 1
Target: Ras GTPase-activating protein-binding protein 1, full length (G3BP1, Homo sapiens, UniProt Q13283)
Sequence of UniProt Q13283 (whole entry, looked up): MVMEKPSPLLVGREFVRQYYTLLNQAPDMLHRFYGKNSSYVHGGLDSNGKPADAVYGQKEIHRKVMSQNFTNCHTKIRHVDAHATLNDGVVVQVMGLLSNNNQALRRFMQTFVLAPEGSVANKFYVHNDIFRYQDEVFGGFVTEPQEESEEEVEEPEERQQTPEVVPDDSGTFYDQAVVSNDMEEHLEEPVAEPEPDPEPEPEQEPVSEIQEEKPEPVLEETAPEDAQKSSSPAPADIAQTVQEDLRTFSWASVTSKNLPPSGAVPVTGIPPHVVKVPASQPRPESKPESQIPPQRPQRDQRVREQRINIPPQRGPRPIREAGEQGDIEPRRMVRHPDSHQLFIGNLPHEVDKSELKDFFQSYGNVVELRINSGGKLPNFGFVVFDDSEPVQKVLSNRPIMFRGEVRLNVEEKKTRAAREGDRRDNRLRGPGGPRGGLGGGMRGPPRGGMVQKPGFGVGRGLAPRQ
Method: RNA Bind-n-Seq
Molecule type: RNA
Matrix: in vitro
Tested at: 200 nM
Setting: whole 134-nt RNA, ends assumed
Added: 150 mM KCl
Reference: input library
Direction: higher = stronger binding
Quantity: log2 enrichment
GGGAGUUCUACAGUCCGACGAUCCCUGUGCUACACAUCGUAUGUACCGAAUCGGGGAAAGGGGUUUUUUUGGGGUUUUUGGGGAAAGUAUUAUGUUACGCCGUUCGGAUCUGCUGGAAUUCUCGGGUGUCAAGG: 0.168
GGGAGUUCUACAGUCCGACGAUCCCUCAAGUCCUGUGCUACACAUCGUAUGUACCGAAUCGGGGCGGGCGGCGGGGAAAGUAUUAUGUUACGCCGUUCGGAUCUGCACUUCCAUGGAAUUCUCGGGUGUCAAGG: 0.878
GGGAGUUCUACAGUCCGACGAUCAAGUCCUGUGCUACACAUCGUAUGUACCGAAUCGGUUUUUGGAAAGGAAAAAAAGGAAAGUAUUAUGUUACGCCGUUCGGAUCUGCACUUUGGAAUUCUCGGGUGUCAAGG: -1.1
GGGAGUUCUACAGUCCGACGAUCAGUCCUGUGCUACACAUCGUAUGUACCGAAUCGGGUUUUUGGGUGGGUUUUUUUGGGAAAGUAUUAUGUUACGCCGUUCGGAUCUGCACUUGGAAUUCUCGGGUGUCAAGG: -0.079
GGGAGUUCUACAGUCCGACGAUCCUGUGCUACACAUCGUAUGUACCGAAUCGGCCCCCCCGGGGCCCCCCCGGGCCCCCCCGGGAAAGUAUUAUGUUACGCCGUUCGGAUCUGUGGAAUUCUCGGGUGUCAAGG: -1.22
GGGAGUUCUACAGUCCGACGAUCGUCCUGUGCUACACAUCGUAUGUACCGAAUCGGGGAAAAGGGGAAAAGGGAAAAGGGGAAAGUAUUAUGUUACGCCGUUCGGAUCUGCACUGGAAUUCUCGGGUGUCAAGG: 0.283
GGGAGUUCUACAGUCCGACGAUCUGGGAGGUGGAUUUUGUUUAUUUUUUUAGCUUAUUUCCAGGGGUGGGAAUUUUUUUUUAAUAUGUGUCAUGAAUAAAGUUGUUUUUGAAAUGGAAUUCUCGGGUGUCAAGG: 0.119
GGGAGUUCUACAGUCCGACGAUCCCUGUGCUACACAUCGUAUGUACCGAAUCGGGGCCCCCCGGGCCCCCCGGGGCCCCCCGGGAAAGUAUUAUGUUACGCCGUUCGGAUCUGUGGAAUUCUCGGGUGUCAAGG: -0.677
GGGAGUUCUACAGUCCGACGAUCGUCCUGUGCUACACAUCGUAUGUACCGAAUCGGGGUUUGGGGUUUGGGGUUUUUGGGGAAAGUAUUAUGUUACGCCGUUCGGAUCUGCACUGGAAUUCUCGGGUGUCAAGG: 0.852
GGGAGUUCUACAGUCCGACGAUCCCUCAAGUCCUGUGCUACACAUCGUAUGUACCGAAUCGGGAGGGUGGGUGGGAAAGUAUUAUGUUACGCCGUUCGGAUCUGCACUUCCAGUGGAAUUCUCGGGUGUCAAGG: 1.93

Block 2
Target: Histone acetyltransferase KAT6A, winged helix 2, GST fusion (KAT6A, Homo sapiens, UniProt Q92794, residues 85-181)
Method: protein binding microarray
Molecule type: double-stranded DNA, one strand shown
Matrix: in vitro
Tested at: not given
Setting: 8-mer, flanks averaged, mean of 2 arrays, mostly near background
Reference: not given
Direction: higher = stronger binding
Quantity: E-score
Construct (chain): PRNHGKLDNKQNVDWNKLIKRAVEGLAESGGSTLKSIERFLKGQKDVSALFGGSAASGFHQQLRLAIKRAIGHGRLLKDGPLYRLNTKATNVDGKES
AGCAAGGG: 0.0682
TAAACGCA: 0.00975
AATTTCTC: 0.0632
AACCATGC: 0.0427
CACTCTCA: -0.077
AAGGGACA: -0.0112
CGTATGGA: -0.111
CGAATCTC: 0.00756
AGTGCGCG: -0.0137
AACTTTAA: 0.18
AAGAATTG: 0.0177
CTCGGCTA: 0.136
AGTTGCCA: 0.106
AGTACACT: -0.0938
CTACTGTA: -0.179
AAGTAATG: -0.033
CCAACAAC: 0.0142
ACCACGAT: -0.112
TAAGGACA: 0.0392
CGGCATGA: 0.146
CCCTTAAC: -0.156
ACCTTCGG: 0.17
AAAATAGG: 0.00607
ACCAGGCA: -0.0335
AGACCCGA: 0.098

Block 3
Target: Interferon regulatory factor 7, full length, phosphomimetic (IRF7, Homo sapiens, UniProt Q92985, residues 1-503, S471D/S472D/S475D/S476D/S477D/S483D/S484D/S487D)
Method: protein-binding microarray
Molecule type: double-stranded DNA, one strand shown
Matrix: in vitro
Tested at: 2200 nM top
Setting: 60-bp whole probe
Added: salmon DNA 0.4 mg/ml
Reference: random background probes
Direction: higher = stronger binding
Quantity: fitted relative affinity
All sequences stand within: GCCTAGCAC … GTCTTGATTCGCTTGACGCTGCTG
Residues (chain): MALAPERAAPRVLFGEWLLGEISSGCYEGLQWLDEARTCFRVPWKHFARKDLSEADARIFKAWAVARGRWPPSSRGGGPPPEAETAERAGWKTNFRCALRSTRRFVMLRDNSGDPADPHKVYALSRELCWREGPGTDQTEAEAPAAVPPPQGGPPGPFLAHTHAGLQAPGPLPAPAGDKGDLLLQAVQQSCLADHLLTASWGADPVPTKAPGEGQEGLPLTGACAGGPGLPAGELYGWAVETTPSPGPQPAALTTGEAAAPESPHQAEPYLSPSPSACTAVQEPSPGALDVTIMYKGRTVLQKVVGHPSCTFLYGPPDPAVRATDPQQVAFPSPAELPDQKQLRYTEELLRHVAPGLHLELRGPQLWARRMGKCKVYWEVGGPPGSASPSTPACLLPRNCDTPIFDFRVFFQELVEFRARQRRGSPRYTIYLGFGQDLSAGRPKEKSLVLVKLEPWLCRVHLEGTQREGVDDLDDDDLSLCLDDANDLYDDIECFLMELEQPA
GACGGTCTCATTATCCTGACGTGCTAG: 0.874 z-score
GACGAACTGAGTCTCAAGACGTGCTAG: -0.218 z-score
GTATGGATGTGTTTTAAATAGTGCTAG: 0.781 z-score
TCAATTTTGCTTCTAGAACTGTGCTAG: 1.31 z-score
TCTTTTTGCACTCTCTACATGTGCTAG: 2.58 z-score
GACGAACTGGGGTAACGAGACGTGCTA: -0.0974 z-score
TTAGGACTTGACTATCGGTTAGTGCTA: -0.0575 z-score
TTAGGTATCGACTTTCGGCTAGTGCTA: 2.08 z-score
TTAGGACTGGACTATCGGATAGTGCTA: -0.489 z-score
GACGGTATCTGTATCGGGACGTGCTAG: 0.521 z-score
TTCTTTTCCATTTTGTGTTTGTGCTAG: 4.39 z-score

Block 4
Target: Hepatocyte nuclear factor 3-beta, forkhead domain (FOXA2, Homo sapiens, UniProt Q9Y261, residues 142-269)
Method: protein-binding microarray
Molecule type: double-stranded DNA, one strand shown
Matrix: in vitro
Tested at: not given
Setting: k-mer, scored over probes, only values ≥0.25
Direction: higher = stronger binding
Quantity: E-score
Target sequence (chain): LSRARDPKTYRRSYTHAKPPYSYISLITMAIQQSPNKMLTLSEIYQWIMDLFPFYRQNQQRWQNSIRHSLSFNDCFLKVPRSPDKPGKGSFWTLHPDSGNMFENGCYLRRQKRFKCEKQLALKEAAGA
AACTAATG: 0.258
TAATTACA: 0.321
ACAATTGA: 0.265
CAACATAC: 0.274
TGCAAACA: 0.323
CAAATACA: 0.348
GCTATATA: 0.272
AATATAAA: 0.27
ATAATTGA: 0.285
CTAAATAA: 0.295
AGCTATAT: 0.3

Block 5
Target: Phosphate system positive regulatory protein PHO4, full length, GST-tagged (PHO4, Saccharomyces cerevisiae, UniProt P07270, residues 1-312)
Method: competition protein-binding microarray
Molecule type: double-stranded DNA, one strand shown
Matrix: in vitro
Tested at: 2 µM
Setting: whole 60-bp probe, lowest competitor level
Added: Cbf1 competitor, 0.05 µM
Direction: higher = stronger binding
Quantity: fluorescence intensity
Residues (chain): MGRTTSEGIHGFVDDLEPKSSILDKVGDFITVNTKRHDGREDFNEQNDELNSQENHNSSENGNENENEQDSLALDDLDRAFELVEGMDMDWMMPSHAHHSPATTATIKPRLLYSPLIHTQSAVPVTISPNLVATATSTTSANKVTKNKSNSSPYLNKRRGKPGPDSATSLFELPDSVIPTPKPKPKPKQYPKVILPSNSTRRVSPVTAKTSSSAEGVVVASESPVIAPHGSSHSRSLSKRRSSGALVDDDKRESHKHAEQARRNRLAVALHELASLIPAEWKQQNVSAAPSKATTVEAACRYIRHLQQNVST
TCGTTTAGAGTTATCATCGTGCCAGGACCCAGTGATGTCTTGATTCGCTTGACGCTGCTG: 11100 a.u.
TGACGATTGCTCTTTCCCGTGCTTTATCGAGTAACCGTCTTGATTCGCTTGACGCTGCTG: 7270 a.u.
TTATCGGTCTCGAGTCACGTGCGGAGACGCGGAGGCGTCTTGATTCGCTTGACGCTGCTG: 15100 a.u.
GTCTTGTCTCATTGCCGGGTGGGTGTCCCCACTTCAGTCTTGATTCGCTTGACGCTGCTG: 5420 a.u.
CACCTAACAGGCCGTCACGGCCCTGCATCGCAGATTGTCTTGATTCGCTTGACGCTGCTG: 4200 a.u.
AAAGCGGTAATTTGGAGTGTGGGTGCAGATATCTATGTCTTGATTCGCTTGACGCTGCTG: 5390 a.u.
TGCCCGCCATCGAGTCACATGTTCCTACAGATGAAGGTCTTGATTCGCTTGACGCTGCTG: 9360 a.u.
TCCAACGTATCAGTGCGCGTAATCCTTCTCTTGGTAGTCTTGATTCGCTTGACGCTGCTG: 3480 a.u.
CAATTTACATGTTCCAACGTGACTCGAGAAAGCATGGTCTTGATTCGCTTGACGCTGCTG: 11400 a.u.
CCGATCTAGCGTAGTCACCTGATAACAGGAACATAGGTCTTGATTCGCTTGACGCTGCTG: 4920 a.u.
AAAGCGGTAATTTGACGGGTGGGTGCAGATATCTATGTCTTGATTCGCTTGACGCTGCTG: 4510 a.u.
GTCTTGTCTCATTGCAGAGTGGGTGTCCCCACTTCAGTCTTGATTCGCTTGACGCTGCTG: 4880 a.u.
CTTCTGTAAATTTGGTCTGTGGGTGGACGCGCCCCGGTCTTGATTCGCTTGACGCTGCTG: 4530 a.u.
CTTCTGTAAATTTGGAGCGTGGGTGGACGCGCCCCGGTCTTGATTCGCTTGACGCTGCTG: 7730 a.u.
GTCTTGTCTCATTGCCGAGTGGGTGTCCCCACTTCAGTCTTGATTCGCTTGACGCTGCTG: 5310 a.u.

Block 6
Target: Sal-like protein 4, full length isoform B (SALL4, Homo sapiens, UniProt Q9UJQ4-2, residues 1-616)
Method: universal PBM
Molecule type: double-stranded DNA, one strand shown
Matrix: in vitro
Tested at: not given
Setting: 8-mer, flanks averaged, mean of replicates
Direction: higher = stronger binding
Quantity: E-score
Target sequence (chain): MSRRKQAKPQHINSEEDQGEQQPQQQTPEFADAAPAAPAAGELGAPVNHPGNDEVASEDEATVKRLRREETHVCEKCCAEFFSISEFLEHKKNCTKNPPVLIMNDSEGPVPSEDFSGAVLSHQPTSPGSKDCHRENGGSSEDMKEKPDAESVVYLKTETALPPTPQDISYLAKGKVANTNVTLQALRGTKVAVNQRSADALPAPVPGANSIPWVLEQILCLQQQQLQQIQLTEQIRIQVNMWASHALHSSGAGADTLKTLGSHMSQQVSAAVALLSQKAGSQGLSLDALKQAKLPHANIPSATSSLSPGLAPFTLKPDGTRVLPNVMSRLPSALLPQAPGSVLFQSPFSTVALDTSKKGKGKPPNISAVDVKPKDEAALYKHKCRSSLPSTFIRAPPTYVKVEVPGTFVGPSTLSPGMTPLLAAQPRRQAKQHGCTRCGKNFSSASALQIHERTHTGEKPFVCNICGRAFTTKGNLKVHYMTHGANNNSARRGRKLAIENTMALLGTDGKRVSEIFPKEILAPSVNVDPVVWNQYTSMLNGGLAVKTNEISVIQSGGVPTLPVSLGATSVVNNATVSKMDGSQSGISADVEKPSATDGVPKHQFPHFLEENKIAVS
TGAGGGCA: -0.0939
GTACGTTA: 0.241
CAGTCACG: -0.216
TACCGGTA: -0.096
GGTGATTA: 0.127
GTGGAACA: -0.0723
CAGATTCA: 0.0896
CCGGATCA: -0.191
CAAAAGAG: 0.0728
CACAACAA: 0.186
CCCTGTAA: 0.0182
AATTTGGA: 0.149
ACACTCTC: 0.0312
CACTATCC: 0.108
CCCGGGCG: -0.358
AAATGGAA: 0.134
AGCCACTA: 0.022
AAATGATG: 0.209
AAGCAGAA: 0.0944
AAAGGCTA: -0.0846
ACAGCCTA: 0.0312
AATAGCCT: 0.0329
ACAGTGAC: -0.00831
CCGGTACG: -0.302
AAGCTTTA: 0.0243
